{"data": "Assay results of several laboratories", "note": "Each numbered part is a random draw from the data of one study; scales do not carry over between parts. Changes are numbered by the printed parent chain."}
{"data": "Study 1", "target": "CCND3, cyclin fold, Cln2 fusion (human)", "method": "yeast growth competition, sequencing", "matrix": "yeast", "notes": "weak parent motif", "relative to": "not given", "direction": "higher = stronger binding", "starting sequence": "E2F1 docking peptide (human); PPVKRRLDLETDH; partner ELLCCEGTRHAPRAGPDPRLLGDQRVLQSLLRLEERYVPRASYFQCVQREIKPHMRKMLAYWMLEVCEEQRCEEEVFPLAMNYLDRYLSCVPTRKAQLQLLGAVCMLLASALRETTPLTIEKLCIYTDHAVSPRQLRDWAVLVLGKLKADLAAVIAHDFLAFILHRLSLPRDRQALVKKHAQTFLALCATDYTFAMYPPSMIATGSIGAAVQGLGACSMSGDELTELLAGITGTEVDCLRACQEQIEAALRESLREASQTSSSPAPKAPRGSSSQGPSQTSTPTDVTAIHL"}
{"Variant": "D8N", "normalised enrichment score": 0.161}
{"Variant": "D12Y", "normalised enrichment score": 0.269}
{"Variant": "D12P", "normalised enrichment score": 0.0968}
{"Variant": "T11H", "normalised enrichment score": 0.0625}
{"Variant": "R6V", "normalised enrichment score": 0.0751}
{"Variant": "H13Q", "normalised enrichment score": 0.114}
{"Variant": "K4T", "normalised enrichment score": -0.00854}
{"Variant": "K4L", "normalised enrichment score": 0.0792}
{"data": "Study 2", "target": "Prothrombin, mature alpha-thrombin (F2, Homo sapiens, UniProt P00734)", "method": "aptamer microarray, sandwich", "molecule type": "DNA with 2'F-ANA", "matrix": "in vitro", "tested at": "200 nM", "notes": "whole 15-mer aptamer, many near background", "with": "Cy3 exosite-II aptamer, 400 nM", "direction": "higher = stronger binding", "oligonucleotide": "GGTTGGTGTGGTTGG"}
{"Modification": "2'F-ANA at 3 4 5 7 10 11 12 13 14", "mean fluorescence intensity [a.u.]": 49.2}
{"Modification": "2'F-ANA at 1 2 3 5 7 8 10 11 12 13", "mean fluorescence intensity [a.u.]": 111}
{"Modification": "2'F-ANA at 4 5 7 8 10 11", "mean fluorescence intensity [a.u.]": 48.9}
{"Modification": "2'F-ANA at 3 5 6 8 10 11 12 13", "mean fluorescence intensity [a.u.]": 92.9}
{"Modification": "2'F-ANA at 8", "mean fluorescence intensity [a.u.]": 735}
{"Modification": "2'F-ANA at 8 9 10 13 15", "mean fluorescence intensity [a.u.]": 147}
{"Modification": "2'F-ANA at 3 5 7 9 10 12 13 14 15", "mean fluorescence intensity [a.u.]": 56.1}
{"Modification": "2'F-ANA at 1 2 4 5 6 7 13 14", "mean fluorescence intensity [a.u.]": 46.1}
{"data": "Study 3", "cell line": "sample D normal colon organoid", "method": "CellTiter-Glo", "tested at": "1 µM", "notes": "mean of replicates", "relative to": "DMSO"}
{"Compound": "CCCCN(CCCC)C(=O)CN1C[C@@H](c2cc(OC)c3c(c2)OCO3)[C@H](C(=O)O)[C@H]1CC(C)(C)CCC", "viability [%]": 126}
{"Compound": "CCc1ccccc1C(=O)Nc1n[nH]c2c(C)c(F)c(C3C(C#N)=C(C)N(C)C(C)=C3C#N)cc12", "viability [%]": 65}
{"Compound": "NS(=O)(=O)c1cc(NC(=O)C2(c3ccccc3Cl)CC2)ccc1Oc1cccc(Cl)c1", "viability [%]": 95}
{"Compound": "O=C(NCc1ncc(C(F)(F)F)cc1Cl)c1ccc2c(c1)C1(CCS(=O)(=O)CC1)[C@@H](C1CC1)N2S(=O)(=O)c1ccc(F)cc1", "viability [%]": 119}
{"data": "Study 4", "target": "Mitogen-activated protein kinase kinase kinase kinase 4 (MAP4K4, Homo sapiens, UniProt O95819)", "read-out": "enzyme activity", "action": "inhibitor", "tested at": "0.5 µM", "relative to": "control", "chain of UniProt O95819 (whole entry, looked up)": "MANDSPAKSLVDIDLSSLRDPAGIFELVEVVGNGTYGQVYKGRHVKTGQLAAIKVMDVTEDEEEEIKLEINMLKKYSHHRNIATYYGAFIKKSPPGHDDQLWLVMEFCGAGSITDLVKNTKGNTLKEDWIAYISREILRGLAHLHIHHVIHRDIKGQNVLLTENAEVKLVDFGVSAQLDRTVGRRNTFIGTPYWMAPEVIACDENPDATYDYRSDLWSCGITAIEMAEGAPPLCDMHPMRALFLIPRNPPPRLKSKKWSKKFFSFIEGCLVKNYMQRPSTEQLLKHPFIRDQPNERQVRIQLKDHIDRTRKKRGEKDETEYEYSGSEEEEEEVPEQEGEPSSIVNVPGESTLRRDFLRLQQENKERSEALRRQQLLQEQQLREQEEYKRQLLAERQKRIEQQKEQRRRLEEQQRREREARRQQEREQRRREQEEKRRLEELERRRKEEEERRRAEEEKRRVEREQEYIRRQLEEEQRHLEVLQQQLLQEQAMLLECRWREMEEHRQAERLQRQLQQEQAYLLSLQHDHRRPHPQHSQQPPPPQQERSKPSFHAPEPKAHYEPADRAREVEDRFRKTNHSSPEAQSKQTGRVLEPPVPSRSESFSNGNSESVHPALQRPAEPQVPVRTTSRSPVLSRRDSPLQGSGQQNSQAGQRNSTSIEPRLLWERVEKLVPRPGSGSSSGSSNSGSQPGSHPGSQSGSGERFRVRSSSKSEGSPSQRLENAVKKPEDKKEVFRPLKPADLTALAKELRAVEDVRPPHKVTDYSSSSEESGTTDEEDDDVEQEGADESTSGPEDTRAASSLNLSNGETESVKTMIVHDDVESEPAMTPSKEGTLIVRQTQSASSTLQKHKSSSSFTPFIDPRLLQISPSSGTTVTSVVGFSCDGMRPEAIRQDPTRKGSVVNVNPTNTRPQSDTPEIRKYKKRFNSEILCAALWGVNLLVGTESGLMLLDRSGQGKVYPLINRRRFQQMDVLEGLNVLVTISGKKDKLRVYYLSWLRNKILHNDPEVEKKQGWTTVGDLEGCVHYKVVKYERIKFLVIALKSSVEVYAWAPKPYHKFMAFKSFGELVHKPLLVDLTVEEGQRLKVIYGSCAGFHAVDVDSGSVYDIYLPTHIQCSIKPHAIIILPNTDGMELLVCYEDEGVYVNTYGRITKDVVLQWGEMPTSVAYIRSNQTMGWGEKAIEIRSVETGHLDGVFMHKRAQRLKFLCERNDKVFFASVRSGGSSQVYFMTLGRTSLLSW"}
{"Compound": "Nc1ncnc2n[nH]c(Nc3ccc(F)cc3)c12", "remaining activity [%]": 59.4}
{"Compound": "Cc1cccc(-c2[nH]c(C(C)(C)C)nc2-c2ccc3c(c2)OCO3)n1", "remaining activity [%]": 86.9}
{"Compound": "CCOC(=O)c1c(C)[nH]c(/C=C2\\C(=O)Nc3ccccc32)c1C", "remaining activity [%]": 64.5}
{"Compound": "CO[C@H]1C[C@@H]2CC[C@@H](C)[C@@](O)(O2)C(=O)C(=O)N2CCCC[C@H]2C(=O)O[C@H]([C@H](C)C[C@@H]2CC[C@@H](O)[C@H](OC)C2)CC(=O)[C@H](C)/C=C(\\C)[C@@H](O)[C@@H](OC)C(=O)[C@H](C)C[C@H](C)/C=C/C=C/C=C/1C", "remaining activity [%]": 87.7}
{"Compound": "CN(C)c1ccc(C=C2C(=O)Nc3ccccc32)cc1", "remaining activity [%]": 74.5}
{"Compound": "O=C(Nc1cccc(Nc2cc(Nc3cccc(C(F)(F)F)c3)ncn2)c1)C1CC1", "remaining activity [%]": 102}
{"note": "For quick reference, copied from above (study 2):"}
{"Modification": "2'F-ANA at 3 4 5 7 10 11 12 13 14", "mean fluorescence intensity [a.u.]": 49.2}
{"Modification": "2'F-ANA at 1 2 3 5 7 8 10 11 12 13", "mean fluorescence intensity [a.u.]": 111}
